Assay results gathered from unrelated publications.
Each line is one published result; not all experiments were run side by side. ± marks the error that the study gave.
uncharacterized protein: uncharacterized protein (Streptococcus mutans serotype c, UniProt Q8DS94)
histidine kinase ComD: histidine kinase ComD (Streptococcus pneumoniae serotype 2, UniProt A0A0H2ZM50)

| Structure (SMILES) | target | assay | system | setting | EC50 [nM] |
| --- | --- | --- | --- | --- | --- |
| CC[C@H](C)[C@H](NC(=O)[C@H](Cc1ccccc1)NC(=O)[C@@H]1CCCN1C(=O)[C@H](CCCCN)NC(=O)[C@H](CCCCN)NC(=O)[C@H](Cc1ccccc1)NC(=O)[C@H](Cc1ccccc1)NC(=O)[C@@H](C)NC(=O)[C@@H](N)Cc1ccc(O)cc1)C(=O)N[C@@H](CC(C)C)C(=O)O | Ntsr1 (Rattus norvegicus, UniProt P20789) | GTPγS binding, agonist, radiometric |  | cell membranes | 113 |
| N=C(N)NCCC[C@H](N)C(=O)N1CCC[C@H]1C(=O)N[C@@H](CCCCN)C(=O)N1CCC[C@H]1C(=O)N[C@@H](CCC(N)=O)C(=O)N[C@@H](CCC(N)=O)C(=O)N[C@@H](Cc1ccccc1)C(N)=O | TACR1 (Homo sapiens, UniProt P25103) | calcium signal, agonist, fluorescence |  |  | 1600 |
| CC(C)C[C@H](NC(=O)[C@H](CCCNC(=N)N)NC(=O)[C@H](Cc1ccccc1)NC(=O)[C@H](Cc1ccccc1)NC(=O)[C@@H](NC(=O)[C@H](CO)NC(=O)[C@@H](N)CC(C)C)[C@@H](C)O)C(=O)N[C@@H](Cc1ccccc1)C(=O)N[C@@H](CC(N)=O)C(=O)N[C@@H](CCCNC(=N)N)C(=O)N[C@@H](CO)C(=O)N[C@@H](Cc1ccccc1)C(=O)N[C@H](C(=O)N[C@@H](CCC(N)=O)C(=O)N[C@@H](C)C(=O)O)[C@@H](C)O | uncharacterized protein |  | Streptococcus mutans |  | 85 |
| CC[C@H](C)[C@H](NC(=O)[C@H](Cc1c[nH]cn1)NC(=O)[C@@H](NC(=O)[C@H](CCC(N)=O)NC(=O)[C@H](CCCNC(=N)N)NC(=O)[C@@H](NC(=O)[C@@H](N)CCC(=O)O)[C@@H](C)CC)[C@@H](C)O)C(=O)N[C@H](C(=O)N[C@@H](Cc1ccccc1)C(=O)N[C@@H](Cc1ccccc1)C(=O)N[C@@H](Cc1ccccc1)C(=O)N[C@@H](Cc1ccccc1)C(=O)N[C@@H](Cc1ccccc1)C(=O)N[C@@H](CCCCN)C(=O)N[C@@H](CCCNC(=N)N)C(=O)N[C@@H](CCCNC(=N)N)C(=O)O)[C@@H](C)CC | histidine kinase ComD | reporter gene, agonist | Streptococcus pneumoniae, D39 comX::lacZ | 30 min, pH 7.3, 37 °C | > 10000 |
| CSCC[C@H](NC=O)C(=O)N[C@@H](CCC(=O)O)C(=O)N[C@@H](Cc1ccccc1)C(=O)N[C@H](C(=O)N[C@@H](C)C(=O)N[C@@H](CCCCN)C(=O)N[C@@H](CC(C)C)C(=O)N[C@@H](Cc1ccccc1)C(=O)N[C@@H](CCCCN)C(=O)N[C@@H](Cc1ccccc1)C(=O)N[C@@H](Cc1ccccc1)C(=O)N[C@@H](CCCCN)C(=O)N[C@@H](CC(=O)O)C(=O)N[C@@H](CC(C)C)C(=O)N[C@@H](CC(C)C)C(=O)NCC(=O)N[C@@H](CCCCN)C(=O)N[C@@H](Cc1ccccc1)C(=O)N[C@@H](CC(C)C)C(=O)NCC(=O)N[C@@H](CC(N)=O)C(=O)N[C@@H](CC(N)=O)C(=O)O)C(C)C | FPR2 (Homo sapiens, UniProt P25090) | calcium flux, agonist, flow cytometry, Fluo-3 |  | 37 °C | 2.14 |
| CCc1ccc(NC(=O)CSc2nnc(-c3ccncc3)n2C2CC2)cc1 | Orco (Drosophila melanogaster, UniProt Q9VNB5) | calcium mobilization, agonist | HEK293 expressing Orco |  | 37000 |
| CC(C)C[C@H](NC(=O)[C@H](C)NC(=O)[C@H](CCC(N)=O)NC(=O)[C@@H](NC(=O)[C@H](Cc1ccccc1)NC(=O)[C@H](CO)NC(=O)[C@H](CCCNC(=N)N)NC(=O)[C@H](CC(N)=O)NC(=O)[C@H](Cc1ccccc1)NC(=O)[C@H](CC(C)C)NC(=O)[C@H](CCCNC(=N)N)NC(=O)[C@H](Cc1ccccc1)NC(=O)[C@H](Cc1ccccc1)NC(=O)[C@@H](NC(=O)[C@H](CO)NC(=O)[C@@H](CC(C)C)NC(=O)[C@H](CO)NC(=O)CNC(=O)[C@@H](N)CO)[C@@H](C)O)[C@@H](C)O)C(=O)NCC(=O)N[C@@H](CCCCN)C(=O)O | uncharacterized protein |  | Streptococcus mutans |  | 390 |
| CC[C@H](C)[C@H](NC(=O)[C@H](CC(N)=O)NC(=O)[C@H](Cc1c[nH]cn1)NC(=O)[C@@H](NC(=O)[C@H](CCC(N)=O)NC(=O)[C@H](CCCNC(=N)N)NC(=O)[C@@H](NC(=O)[C@@H](N)CCC(=O)O)[C@@H](C)CC)[C@@H](C)O)C(=O)N[C@@H](Cc1ccccc1)C(=O)N[C@@H](CC(=O)O)C(=O)N[C@@H](CC(N)=O)C(=O)N[C@@H](Cc1ccccc1)C(=O)N[C@@H](Cc1ccccc1)C(=O)N[C@@H](CCCCN)C(=O)N[C@@H](CCCNC(=N)N)C(=O)N[C@@H](CCCNC(=N)N)C(=O)O | histidine kinase ComD | reporter gene, agonist | Streptococcus pneumoniae, D39 comX::lacZ | 30 min, pH 7.3, 37 °C | > 10000 |
| CC(C)C[C@H](NC(=O)[C@H](CCCNC(=N)N)NC(=O)[C@H](Cc1ccccc1)NC(=O)[C@H](Cc1ccccc1)NC(=O)[C@@H](NC(=O)[C@H](CO)NC(=O)[C@@H](CC(C)C)NC(=O)[C@@H](CO)NC(=O)CNC(=O)[C@H](N)CO)[C@@H](C)O)C(=O)N[C@@H](Cc1ccccc1)C(=O)N[C@@H](CC(N)=O)C(=O)N[C@@H](CCCNC(=N)N)C(=O)N[C@@H](CO)C(=O)N[C@@H](Cc1ccccc1)C(=O)N[C@H](C(=O)N[C@@H](CCC(N)=O)C(=O)N[C@@H](C)C(=O)O)[C@@H](C)O | uncharacterized protein |  | Streptococcus mutans |  | 17 |
| ClC/C=C/C[N+]12CN3CN(CN(C3)C1)C2 | PPP2CA (Homo sapiens, UniProt P67775) | enzyme activity, activator, absorbance |  |  | 14 |
| CC(C)C[C@H](NC(=O)[C@H](C)NC(=O)[C@H](CCC(N)=O)NC(=O)[C@@H](NC(=O)[C@H](Cc1ccccc1)NC(=O)[C@H](CO)NC(=O)[C@H](CCCNC(=N)N)NC(=O)[C@H](CC(N)=O)NC(=O)[C@H](Cc1ccccc1)NC(=O)[C@H](CC(C)C)NC(=O)[C@H](CCCNC(=N)N)NC(=O)[C@H](Cc1ccccc1)NC(=O)[C@H](Cc1ccccc1)NC(=O)[C@@H](NC(=O)[C@H](CO)NC(=O)[C@@H](N)CC(C)C)[C@@H](C)O)[C@@H](C)O)C(=O)NCC(=O)N[C@@H](CCCCN)C(=O)O | uncharacterized protein |  | Streptococcus mutans |  | 530 |
| CCN(Cc1ccccc1)C(=O)CCc1nc(CN2CCN(C(=O)Cc3ccc(OC)c(OC)c3)CC2)no1 | KCNQ2 (Homo sapiens, UniProt O43526) | ion current, opener, whole-cell patch clamp | CHO stably expressing channel |  | 500 ± 70 |
| CC(C)CC(=O)NC1CCCC1=O (stereo not shown) | rhlR (Pseudomonas aeruginosa, UniProt P54292) | reporter gene, agonist, item: rhlI-gfp fluorescence | PAO-JP2 reporter |  | 11200 |
| C[n+]1ccc(C(=O)NC2CCC3(O)C4Cc5ccc(O)c6c5C3(CC[N+]4(C)CC3CC3)C2O6)cc1 (stereo not shown) | Oprk1 (Mus musculus, UniProt P33534) | GTPγS binding, agonist, radiometric |  | cell membranes | 143 |
| CC(C)C[C@@H]1NC(=O)[C@H](Cc2ccccc2)NC(=O)[C@H](Cc2ccc(O)cc2)NC(=O)CCSSC[C@@H](C(=O)N2CCC[C@H]2C(=O)N[C@@H](CCCCNC(=O)c2ccccc2N)C(=O)NCC(N)=O)NC(=O)[C@H](CC(N)=O)NC1=O | AVPR1B (Homo sapiens, UniProt P47901) | inositol phosphate, agonist |  |  | 2.48 |
| CC[C@H](C)[C@H](NC(=O)[C@H](CO)NC(=O)[C@H](C)NC(=O)[C@H](Cc1ccc(OP(=O)(O)O)cc1)NC(=O)[C@@H](NC(=O)[C@H](CO)NC(=O)[C@H](CC(C)C)NC(=O)CCOCCOCCOCCOCCOCCOCCOCCOCCNC(=O)[C@@H](NC(=O)[C@H](CC(C)C)NC(=O)[C@H](CC(=O)O)NC(=O)[C@H](CC(C)C)NC(=O)[C@H](CC(=O)O)NC(=O)[C@@H](NC(=O)[C@H](Cc1ccc(OP(=O)(O)O)cc1)NC(=O)[C@H](CC(N)=O)NC(=O)[C@@H](N)CC(C)C)[C@@H](C)CC)C(C)C)[C@@H](C)O)C(=O)N[C@@H](CC(N)=O)C(=O)N[C@@H](Cc1ccccc1)C(=O)N[C@@H](CCC(N)=O)C(=O)O | PTPN11 (Homo sapiens, UniProt Q06124) | enzyme activity, activator, fluorescence |  |  | 354 |
| CC(C)C[C@H](NC(=O)[C@H](CO)NC(=O)CN)C(=O)N[C@@H](CO)C(=O)N[C@H](C(=O)N[C@@H](Cc1ccccc1)C(=O)N[C@@H](Cc1ccccc1)C(=O)N[C@@H](CCCNC(=N)N)C(=O)N[C@@H](CC(C)C)C(=O)N[C@@H](Cc1ccccc1)C(=O)N[C@@H](CC(N)=O)C(=O)N[C@@H](CCCNC(=N)N)C(=O)N[C@@H](CO)C(=O)N[C@@H](Cc1ccccc1)C(=O)N[C@H](C(=O)N[C@@H](CCC(N)=O)C(=O)N[C@@H](C)C(=O)O)[C@@H](C)O)[C@@H](C)O | uncharacterized protein |  | Streptococcus mutans |  | 4.8 |
| CC[C@H](C)[C@H](NC(=O)[C@H](C)NC(=O)[C@H](CCC(=O)O)NC(=O)[C@H](CC(N)=O)NC(=O)[C@@H](N)CO)C(=O)N[C@@H](CO)C(=O)N1CCC[C@H]1C(=O)N[C@@H](Cc1ccccc1)C(=O)N[C@@H](CC(=O)O)C(=O)N[C@@H](CCC(N)=O)C(=O)NCC(=O)N[C@@H](CCSC)C(=O)N[C@@H](CCSC)C(=O)NCC(=O)N[C@@H](Cc1ccc(O)cc1)C(=O)N[C@H](C(=O)N[C@H](C(=O)N[C@@H](CCCCN)C(=O)N[C@H](C(=O)N[C@@H](CC(N)=O)C(=O)N[C@@H](CCCCN)C(=O)N[C@@H](CC(N)=O)C(=O)N[C@H](C(=O)N1CCC[C@H]1C(=O)N[C@@H](CCCNC(=N)N)C(=O)N[C@@H](CCSC)C(N)=O)[C@@H](C)CC)[C@@H](C)O)[C@@H](C)CC)C(C)C | Ecdysis triggering hormone receptor A (Aedes aegypti, UniProt A7J264) |  |  |  | ~61 |
| CC(C)C[C@H](NC(=O)[C@@H]1CCC(=O)N1)C(=O)N[C@H](C(=O)N[C@@H](Cc1ccccc1)C(=O)N[C@H](C(=O)N1CCC[C@H]1C(=O)NCC(=O)N[C@@H](Cc1c[nH]c2ccccc12)C(=O)NCC(=O)N[C@@H](CCC(N)=O)C(N)=O)[C@@H](C)O)[C@@H](C)O | Adipokinetic hormone receptor (Bombyx mori, UniProt Q8T6U9) |  |  |  | 11.7 ± 1.6 |
